Assay results pooled from the literature.
Protocols differ between the studies behind these lines. Several values in a cell are separate wells, animals, samples, runs or records. Numbers after ± are the reported error.
BRD2 BD2: Bromodomain-containing protein 2, BD2 (BRD2, Homo sapiens, UniProt P25440)
MAPK8: Mitogen-activated protein kinase 8 (MAPK8, Homo sapiens, UniProt P45983)
STING1 H232R: Stimulator of interferon genes protein (STING1, Homo sapiens, UniProt Q86WV6, H232R)
TBC1D13: TBC1 domain family member 13 (TBC1D13, Homo sapiens, UniProt Q9NVG8)
Ecdysone receptor: Ecdysone receptor (Aedes albopictus, UniProt Q9U3Y4)
Dipeptidyl peptidase 8: Dipeptidyl peptidase 8 (Homo sapiens, UniProt Q6V1X1)

Cc1ccc(C(=O)N2CCN(CC(OCc3ccc4ccccc4c3)c3ccc(Cl)cc3Cl)CC2)cc1 (stereo not drawn) — result for “activity vs control”: 117% (Serine/threonine-protein kinase ULK1 (ULK1, Homo sapiens, UniProt O75385); enzyme activity, inhibitor, ADP detection; 0.1 µM).
Cc1ccc(-c2c(/C=C(\C#N)C(=O)NC(C)C)n(CCCO)c3ncnc(N)c23)cc1 has a remaining binding of 100% (Tyrosine-protein kinase ABL1, phosphorylated (ABL1, Homo sapiens, UniProt P00519, H396P); cell-free assay, competition with immobilised ligand; 1 µM).
CC(=O)N1c2ccc(-c3ccc(CNC(=O)c4cn5cc(-c6cnc(N)nc6)nc(N6CCOCC6)c5n4)cc3)cc2CC[C@@H]1C gave a remaining binding of 0.1% (BRD2 BD2; binding, competition with immobilised ligand; 10 µM).
The potency increase of CC[C@H](C)[C@@H](C(=O)N[C@@H](CC(C)C)C(=O)N[C@@H](CO)C(=O)N[C@@H](CO)C(=O)N[C@H](C(=O)N[C@@H](CC(N)=O)C(=O)N[C@H](C(=O)NCC(=O)N[C@@H](CO)C(=O)N[C@@H](CC(N)=O)C(=O)N[C@H](C(=O)N1CCC[C@H]1C(N)=O)[C@@H](C)O)C(C)C)[C@@H](C)O)N(C)C(=O)[C@H](C)NC(=O)CN(C)C(=O)[C@H](Cc1ccccc1)NC(=O)[C@H](CC(N)=O)NC(=O)[C@H](CC(N)=O)NC(=O)[C@H](CO)NC(=O)[C@H](CO)NC(=O)[C@H](CCCNC(=N)N)NC(=O)[C@H](Cc1c[nH]cn1)NC(=O)[C@H](CC(C)C)NC(=O)[C@H](Cc1ccccc1)NC(=O)[C@H](CCC(=O)O)NC(=O)[C@H](C)NC(=O)[C@H](CC(C)C)NC(=O)[C@H](CCCNC(=N)N)NC(=O)[C@H](CCC(N)=O)NC(=O)[C@@H](NC(=O)[C@H](C)NC(=O)[C@@H]1CSSC[C@H](NC(=O)[C@H](CCCNC(=N)N)NC(=O)CC[C@H](NC(=O)CCCCCCCCCCCCCCCCCCC(=O)O)C(=O)O)C(=O)N[C@@H](CC(N)=O)C(=O)N[C@@H]([C@@H](C)O)C(=O)N[C@@H](C)C(=O)N[C@@H]([C@@H](C)O)C(=O)N1)[C@@H](C)O is reported as 3 to 4 fold (Amylin receptor AMY3; CALCR/RAMP3 (Homo sapiens, UniProt O60896+P30988); cAMP accumulation, agonist; COS-7; reference: over native Tyr37 analogue).
COC(=O)c1cc2cc3c(cc2oc1=O)N(CC(=O)NC(Cc1cccc(Cl)c1)C(=O)NCC=CS(=O)(=O)c1ccccc1)CCC3 (stereo not drawn) has a kinact/Ki of 4290 M⁻¹ s⁻¹ (Rhodesain (rhodesain, Trypanosoma brucei rhodesiense, UniProt Q95PM0); inhibitor; pH 5.5, 37 °C, with: Z-Phe-Arg-AMC).
The cAMP luminescence of CC(C)Oc1cc(Cl)ccc1CNc1cc(-c2ccccc2)nc2ncnn12 is reported as 14300 a.u. and 26700 a.u. and 3340 a.u. and 14700 a.u. and 3770 a.u. and 5920 a.u. and 8210 a.u. and 6090 a.u. (G-protein coupled receptor 3 (GPR3, Homo sapiens, UniProt P46089); cAMP reporter; human cells; 1 µM; higher is more cAMP).
For CN(C(=O)OCc1cc(C(=O)O)cc(F)c1OP(=O)(O)O)C(=O)c1ccc(N2C(=S)N(c3ccc(C#N)c(C(F)(F)F)c3)C(=O)C2(C)C)cc1F, “drug formation rate” read 3.43 pmol/min (Alkaline phosphatase, placental type (Homo sapiens, UniProt P05187); substrate; 100 µM, pH 7.6, 37 °C).
Cn1cc(-c2cc(N3CCCCS3(=O)=O)ccc2N[C@H]2CC[C@H](C)CC2)c2cc[nH]c2c1=O (stereo in doubt) gave a remaining binding of 0% (BRD2 BD2; binding, competition with immobilised ligand; 1 µM).
The fraction bound of CN(C)c1ccc(-n2cc(COC(=O)[C@]3(C)C=C(C(=O)OC(C)(C)C)C(=O)CC3)nn2)cc1 is reported as 0.32 (MAPK8; D-peptide binding, inhibitor, FP peptide displacement; 25 µM; lower is stronger displacement).
With CC(C)C[C@@H]1NC(=O)[C@H](Cc2ccccc2)NC(=O)CSC[C@@H](C(=O)NCC(N)=O)NC(=O)[C@H](C(C)C)NC(=O)[C@H](Cc2ccccc2)NC(=O)[C@H](Cc2ccc(O)cc2)NC(=O)[C@H](C(C)C)NC(=O)[C@H](CC(=O)O)NC(=O)[C@H](Cc2ccccc2)NC(=O)[C@H](CCCNC(=N)N)NC(=O)[C@H](Cc2ccccc2)N(C)C(=O)[C@H](C)NC(=O)[C@H](Cc2ccccc2)NC(=O)[C@H](C(C)C)NC1=O the ΔTm was -0.05 °C (STING1 H232R; thermal stability, DSF; 100 µM).
CCn1cc(-c2cccc(C(F)(F)F)c2)c2sc(C(=N)NC3CCS(=O)(=O)CC3)cc2c1=O has a ΔTm of 3.3 °C (Bromodomain testis-specific protein, BD1 (BRDT, Homo sapiens, UniProt Q58F21)).
CCCCCC(O)/C=C/C=O (stereo not drawn): “isoTOP-ABPP competition ratio” 1.2 (TBC1D13; competitive isoTOP-ABPP; proteome, soluble, MDA-MB-231; 100 µM, 60 min, with: iodoacetamide probe; reference: DMSO over compound-treated, higher = stronger cysteine blockade).
For CN(C)c1ccc(C#CCOC(=O)[C@]2(C)C=C(C(=O)OC(C)(C)C)C(=O)CC2)cc1, the fraction bound was 0.271 (MAPK8; D-peptide binding, inhibitor, FP peptide displacement; 1000 µM; lower is stronger displacement).
O=C(CCCCCCS)Nc1ccccc1 gave a binding stoichiometry of 0.9 (Histone deacetylase 8 (HDAC8, Homo sapiens, UniProt Q9BY41); ITC; Tris-HCl buffer; concentration not given, 288 K).
The Emax of CCOC(=O)C(CC)(CCCSCCOCCOCCOCCNc1ccc([N+](=O)[O-])c2nonc12)NC(=O)c1ccc(C2CC2)c(Cc2ccc(F)cc2)n1 (stereo not drawn) is reported as 113% (Cannabinoid receptor 2 (Cnr2, Mus musculus, UniProt P47936); cAMP, agonist).
For COC(=O)[C@@]1(C)C=C(C(=O)OC(C)(C)C)C(=O)CC1, the fraction bound was 0.108 (MAPK8; D-peptide binding, inhibitor, FP peptide displacement; 1000 µM; lower is stronger displacement).
For C[C@@H]1C[C@H](Nc2ccccc2)c2cc(F)ccc2N1C(=O)c1ccc(N)cc1, the pIC50 Z-score was -1 (Ecdysone receptor; ligand binding, inhibitor; intact cells; with: [3H]ponasterone A; direction not given).
C=CC(=O)N1CCCC(n2c(=O)c3ncccc3n(Cc3ccc(Oc4ccccc4)cc3)c2=O)C1 (stereo not drawn) has a melting temperature of 49.4 °C and 46.4 °C (Elongin-C (Homo sapiens, UniProt Q15369); thermal proteome profiling, item: ELOC; treated).
CCCCCCCCCCCCC/C=C/C=O — result for “isoTOP-ABPP competition ratio”: 1 (TBC1D13; competitive isoTOP-ABPP; Ramos soluble proteome; 100 µM, 60 min, with: iodoacetamide probe; reference: DMSO over compound-treated, higher = stronger cysteine blockade).
CC(C)[C@@H]1NC(=O)[C@H](Cc2ccccc2)NC(=O)CSC[C@@H](C(N)=O)NC(=O)[C@H](CCC(=O)O)NC(=O)[C@H](CO)NC(=O)[C@H](Cc2c[nH]c3cccc(Cl)c23)NC(=O)[C@H](C2CCCCC2)NC(=O)[C@H](C(C)C)NC(=O)[C@H](Cc2ccc(O)cc2)NC(=O)[C@H](CC(=O)O)NC(=O)[C@H](Cc2c[nH]c3ccccc23)NC(=O)[C@H](Cc2ccc(N)nc2)NC(=O)[C@H](Cc2c[nH]c3ccc(Cl)cc23)NC(=O)[C@H](CCC(=O)O)NC1=O gave a remaining activity of 15.9% (Interleukin-1 receptor-like 2 (IL1RL2, Homo sapiens, UniProt Q9HB29); reporter gene (SEAP), inhibitor, HEK-Blue IL-36R reporter; HEK-Blue IL-36R cells; 1.23 µM, 6 h, with: IL-36β 0.1 ng/mL).
CC(=O)C12NC(C)(C)CC1(C)C(=O)C1=C2c2c(c3c4n2C(C)(C)CC2=C4C4(CC(C)(C)NC(C)(C4)C2=O)CC3(C)C)C(=O)C(C)(C)N1 (single isomer, unassigned; (-)) has an activation of 2.1% (P2X purinoceptor 7 (P2RX7, Homo sapiens, UniProt Q99572); ion current, agonist, whole-cell patch clamp; HEK293T; 10 µM).
Under “isoTOP-ABPP competition ratio”, CCCCCC=CC=C1C(=O)C=CC1CC=CCCCC(=O)O (stereo not drawn) is recorded as 6.3 (REEP5 (Homo sapiens, UniProt Q00765); competitive isoTOP-ABPP; Ramos soluble proteome; 100 µM, 60 min, with: iodoacetamide probe; reference: DMSO over compound-treated, higher = stronger cysteine blockade).
COC(=O)[C@@]1(Cc2ccccc2)C=C(C(=O)OC(C)(C)C)C(=O)CC1 has a fraction bound of 0.116 (Mitogen-activated protein kinase 14 (MAPK14, Homo sapiens, UniProt Q16539, C119V); peptide binding, fluorescence polarization; 250 µM).
The specific binding of O=C1c2sc(-c3ccc(N4CCC(F)C4)nc3F)nc2CCN1c1cccnc1 (stereo not drawn) is reported as 301 nM (TAR DNA-binding protein 43, aggregated (TARDBP, Homo sapiens, UniProt Q13148); saturation autoradiography; human, FTLD-TDP type A brain sections; 50 nM).
O=C(O)[C@@H]1O[C@@H](O[C@H]2[C@H](O)[C@H](O)[C@H](O[C@H]3[C@H](O)[C@H](O)[C@H](O[C@H]4[C@H](O)[C@H](O)[C@H](O)O[C@H]4C(=O)O)O[C@H]3C(=O)O)O[C@H]2C(=O)O)[C@@H](O)[C@@H](O)[C@@H]1O gave a binding stoichiometry of 4.2 (Beta-lactoglobulin (LGB, Bos taurus, UniProt P02754, A134V/G80D); isothermal titration calorimetry; concentration not given, pH 4.00, 37 °C, 50 mM KH2PO4; ligand per protein).
CCCCC1(CC)C(=O)N(c2cccc(CN3CCN(Cc4ccc(Br)cc4)CC3)c2)C1=O: “activity vs control” 19% (Dipeptidyl peptidase 8; enzyme activity, inhibitor; 5 µM).
CCCCCCCC/C=C\CCCCCCCC(=O)OCC(O)COP(=O)(O)O (stereo not drawn) has a fold change of 0.648 and 0.669 and 0.672 and 0.698 and 0.634 and 0.707 (Lysophosphatidic acid receptor 1 (LPAR1, Homo sapiens, UniProt Q92633); G-protein dissociation, agonist, NanoBiT; HEK-293T; 1 µM, wild-type receptor; reference: baseline luminescence).
With COc1ccccc1-c1ccncc1C(=O)Nc1nnc(OCc2ccc(Cl)cc2)s1 the remaining activity was 99% (Bifunctional 3'-5' exonuclease/ATP-dependent helicase WRN, residues 500-946 (WRN, Homo sapiens, UniProt Q14191); ATPase activity, ADP-Glo; 0.24 µM; reference: 0 µM cpd).
For Cc1cn(CC(=O)N(CCNC(=O)CN(CCNC(=O)CN(CCNC(=O)CN(CCNC(=O)CN(CCNC(=O)CN(CCNC(=O)CN(CCNC(=O)CN(CCN)C(=O)Cn2cnc3c(=O)[nH]c(N)nc32)C(=O)Cn2cnc3c(N)ncnc32)C(=O)Cn2cc(C)c(=O)[nH]c2=O)C(=O)Cn2cnc3c(=O)[nH]c(N)nc32)C(=O)Cn2cc(C)c(=O)[nH]c2=O)C(=O)Cn2cnc3c(=O)[nH]c(N)nc32)C(=O)Cn2cnc3c(N)ncnc32)CC(=O)NCCN(CC(=O)NCCOCCOCC(N)=O)C(=O)Cn2cnc3c(N)ncnc32)c(=O)[nH]c1=O, the ΔH was -60.9 ± 0.1 kcal/mol (complementary RNA; duplex formation, UV melting curve fit; PBS; 1 µM).
Under “activity vs control”, CCC1(CC)C(=O)N(c2cc(O[Si](C)(C)C(C)(C)C)cc(C(=O)N3CCN(Cc4ccc(Br)cc4)CC3)c2)C1=O is recorded as > 90% (Dipeptidyl peptidase 8; enzyme activity, inhibitor; 5 µM).
C[C@@H]1C[C@H](Nc2ccccc2)c2cc(F)ccc2N1C(=O)c1ccccc1 has a pIC50 Z-score of -1.23 (Ecdysone receptor; ligand binding, inhibitor; intact cells; with: [3H]ponasterone A; direction not given).
With CC(C)C[C@@H]1NC(=O)[C@H](Cc2ccccc2)NC(=O)[C@H](CO)NC(=O)[C@H](Cc2ccccc2)NC(=O)CSC[C@@H](C(=O)N(C)[C@@H](Cc2ccccc2)C(N)=O)NC(=O)[C@H](Cc2c[nH]c3ccccc23)NC(=O)[C@H](Cc2c[nH]cn2)NC(=O)[C@H](Cc2ccc(O)cc2)NC1=O the ΔTm was 7.89 °C (STING1 H232R; thermal stability, DSF; 200 µM).
C[C@@H](Nc1nc(N[C@H](C)C(F)(F)F)nc(-c2cccc(Cl)n2)n1)C(F)(F)F gave a maximal inhibition of 92.6 ± 5.3% (Isocitrate dehydrogenase [NADP] cytoplasmic (IDH1, Homo sapiens, UniProt O75874, R132H); enzyme activity, diaphorase-resazurin coupled; 1 h preincubation, R132H homodimer).
CSc1cc(C)[nH]c(=O)c1CNC(=O)c1c(C)n(C(C)C2CCC(NC3(C)COC3)CC2)c2ccccc12 (stereo not drawn) has a residence time of 5340 min (Histone-lysine N-methyltransferase EZH2 (EZH2, Homo sapiens, UniProt Q15910); binding, jump dilution; with: H3K27me3 activating peptide).
The maximal inhibition of Fc1ccc(Nc2nc(NC3CCCCC3)c3cc(Br)ccc3n2)cc1F is reported as -2.1% (Beta-2 adrenergic receptor (ADRB2, Homo sapiens, UniProt P07550, Q170L); β-arrestin2 recruitment, antagonist, BRET; mutant Q170L; reference: isoprenaline maximal response).
With COc1cc(Nc2nccc(-c3cnn4nc(OC)ccc34)n2)cc(C(F)(F)F)c1 the remaining binding was 100% (Tyrosine-protein kinase ABL1, non-phosphorylated (ABL1, Homo sapiens, UniProt P00519, F317L); binding; 1 µM).
